Published values from different studies.
Each line is one published result; not all experiments were run side by side. Numbers after ± are the reported error.
CES1: Liver carboxylesterase 1 (CES1, Homo sapiens, UniProt P23141)
Sequence of UniProt P23141 (whole entry, looked up): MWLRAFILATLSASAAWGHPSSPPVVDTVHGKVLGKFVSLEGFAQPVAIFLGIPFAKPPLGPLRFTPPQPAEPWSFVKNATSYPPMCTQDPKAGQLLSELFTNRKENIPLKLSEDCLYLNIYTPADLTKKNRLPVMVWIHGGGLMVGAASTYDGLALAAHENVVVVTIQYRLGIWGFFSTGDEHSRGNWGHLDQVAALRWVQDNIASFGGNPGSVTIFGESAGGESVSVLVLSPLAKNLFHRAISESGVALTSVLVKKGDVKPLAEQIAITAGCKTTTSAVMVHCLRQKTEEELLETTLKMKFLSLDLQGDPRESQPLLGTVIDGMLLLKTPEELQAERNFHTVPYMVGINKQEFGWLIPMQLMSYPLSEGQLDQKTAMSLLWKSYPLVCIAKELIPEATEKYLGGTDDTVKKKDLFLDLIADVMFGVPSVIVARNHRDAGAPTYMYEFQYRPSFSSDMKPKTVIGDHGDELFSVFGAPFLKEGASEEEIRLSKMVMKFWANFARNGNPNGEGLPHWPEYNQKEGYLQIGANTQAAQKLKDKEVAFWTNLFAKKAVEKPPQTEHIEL
Gria2/Glutamate receptor 3: Gria2/Glutamate receptor 3 (Rattus norvegicus, UniProt P19491+P19492)
Sequence of UniProt P19492 (whole entry, looked up): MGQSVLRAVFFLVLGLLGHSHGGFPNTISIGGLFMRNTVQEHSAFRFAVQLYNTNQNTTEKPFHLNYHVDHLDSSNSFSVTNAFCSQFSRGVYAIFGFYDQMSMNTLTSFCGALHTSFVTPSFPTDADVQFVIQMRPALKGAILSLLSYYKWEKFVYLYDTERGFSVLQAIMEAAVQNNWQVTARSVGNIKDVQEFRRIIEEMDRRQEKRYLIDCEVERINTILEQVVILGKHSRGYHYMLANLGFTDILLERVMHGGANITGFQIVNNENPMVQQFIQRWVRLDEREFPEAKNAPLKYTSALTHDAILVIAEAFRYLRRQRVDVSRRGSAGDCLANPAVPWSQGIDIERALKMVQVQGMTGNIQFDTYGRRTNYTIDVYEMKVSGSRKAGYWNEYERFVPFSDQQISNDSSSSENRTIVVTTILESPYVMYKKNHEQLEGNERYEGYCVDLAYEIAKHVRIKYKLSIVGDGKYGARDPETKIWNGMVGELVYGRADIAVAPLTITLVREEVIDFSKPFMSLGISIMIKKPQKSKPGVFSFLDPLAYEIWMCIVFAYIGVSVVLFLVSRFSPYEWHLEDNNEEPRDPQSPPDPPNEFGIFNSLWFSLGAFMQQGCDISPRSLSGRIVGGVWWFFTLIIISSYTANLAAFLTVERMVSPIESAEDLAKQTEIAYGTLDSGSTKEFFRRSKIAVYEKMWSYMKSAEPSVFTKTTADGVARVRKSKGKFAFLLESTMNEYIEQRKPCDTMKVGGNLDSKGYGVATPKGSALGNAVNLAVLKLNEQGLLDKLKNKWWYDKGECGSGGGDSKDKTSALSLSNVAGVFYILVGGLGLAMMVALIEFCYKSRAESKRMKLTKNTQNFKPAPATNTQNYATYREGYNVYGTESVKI
Sequence of UniProt P19491 (whole entry, looked up): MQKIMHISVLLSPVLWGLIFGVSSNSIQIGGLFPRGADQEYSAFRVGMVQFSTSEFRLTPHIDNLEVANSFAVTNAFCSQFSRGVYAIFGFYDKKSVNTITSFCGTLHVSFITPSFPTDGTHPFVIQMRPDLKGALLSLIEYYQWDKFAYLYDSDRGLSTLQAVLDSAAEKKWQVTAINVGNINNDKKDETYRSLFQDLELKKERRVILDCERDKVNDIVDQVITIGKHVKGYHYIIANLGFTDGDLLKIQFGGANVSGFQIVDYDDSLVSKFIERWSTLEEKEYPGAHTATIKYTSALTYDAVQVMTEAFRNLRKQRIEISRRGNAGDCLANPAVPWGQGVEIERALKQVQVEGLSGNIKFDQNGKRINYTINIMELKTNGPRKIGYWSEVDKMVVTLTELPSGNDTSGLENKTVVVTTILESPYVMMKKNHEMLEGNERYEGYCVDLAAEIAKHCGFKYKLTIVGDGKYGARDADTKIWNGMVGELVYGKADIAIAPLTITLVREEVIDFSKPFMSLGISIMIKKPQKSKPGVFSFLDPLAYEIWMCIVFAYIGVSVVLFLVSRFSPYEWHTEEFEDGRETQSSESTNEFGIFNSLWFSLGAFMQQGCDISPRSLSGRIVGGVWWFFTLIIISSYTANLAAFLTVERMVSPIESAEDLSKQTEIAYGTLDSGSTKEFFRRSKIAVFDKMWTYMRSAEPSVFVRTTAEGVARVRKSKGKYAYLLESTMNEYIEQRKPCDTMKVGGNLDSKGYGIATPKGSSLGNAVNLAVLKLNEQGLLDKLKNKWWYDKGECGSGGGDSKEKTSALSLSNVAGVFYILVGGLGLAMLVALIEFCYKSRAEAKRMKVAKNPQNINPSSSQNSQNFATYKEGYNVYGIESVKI
HDAC7: Histone deacetylase 7 (HDAC7, Homo sapiens, UniProt Q8WUI4)
Sequence of UniProt Q8WUI4 (whole entry, looked up): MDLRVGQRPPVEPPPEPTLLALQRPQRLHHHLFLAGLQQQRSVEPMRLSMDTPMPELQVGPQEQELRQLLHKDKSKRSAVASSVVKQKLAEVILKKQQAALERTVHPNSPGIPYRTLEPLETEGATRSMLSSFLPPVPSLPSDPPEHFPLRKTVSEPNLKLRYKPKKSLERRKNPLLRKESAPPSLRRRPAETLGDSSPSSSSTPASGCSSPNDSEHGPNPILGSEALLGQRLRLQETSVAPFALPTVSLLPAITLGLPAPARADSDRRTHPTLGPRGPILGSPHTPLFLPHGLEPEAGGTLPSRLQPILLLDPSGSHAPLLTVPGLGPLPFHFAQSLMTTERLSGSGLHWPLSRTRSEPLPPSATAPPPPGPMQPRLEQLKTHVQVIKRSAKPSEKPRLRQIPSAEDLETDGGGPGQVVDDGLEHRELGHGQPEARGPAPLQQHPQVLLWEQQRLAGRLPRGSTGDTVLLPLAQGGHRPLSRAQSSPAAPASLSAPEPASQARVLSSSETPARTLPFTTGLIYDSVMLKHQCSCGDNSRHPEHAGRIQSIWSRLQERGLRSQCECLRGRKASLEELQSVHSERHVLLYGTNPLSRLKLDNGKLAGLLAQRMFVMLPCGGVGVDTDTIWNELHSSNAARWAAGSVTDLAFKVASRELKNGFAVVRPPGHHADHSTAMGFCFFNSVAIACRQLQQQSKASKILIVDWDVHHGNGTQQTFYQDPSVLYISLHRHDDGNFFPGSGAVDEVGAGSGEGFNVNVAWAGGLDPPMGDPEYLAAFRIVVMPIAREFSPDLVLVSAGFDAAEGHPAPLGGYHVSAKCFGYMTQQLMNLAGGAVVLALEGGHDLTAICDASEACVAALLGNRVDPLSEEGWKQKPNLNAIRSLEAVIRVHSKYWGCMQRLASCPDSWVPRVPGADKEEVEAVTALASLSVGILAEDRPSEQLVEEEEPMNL
60 kDa heat shock protein, mitochondrial with HSP10: 60 kDa heat shock protein, mitochondrial, with HSP10 (Homo sapiens, UniProt P10809)
Sequence of UniProt P10809 (whole entry, looked up): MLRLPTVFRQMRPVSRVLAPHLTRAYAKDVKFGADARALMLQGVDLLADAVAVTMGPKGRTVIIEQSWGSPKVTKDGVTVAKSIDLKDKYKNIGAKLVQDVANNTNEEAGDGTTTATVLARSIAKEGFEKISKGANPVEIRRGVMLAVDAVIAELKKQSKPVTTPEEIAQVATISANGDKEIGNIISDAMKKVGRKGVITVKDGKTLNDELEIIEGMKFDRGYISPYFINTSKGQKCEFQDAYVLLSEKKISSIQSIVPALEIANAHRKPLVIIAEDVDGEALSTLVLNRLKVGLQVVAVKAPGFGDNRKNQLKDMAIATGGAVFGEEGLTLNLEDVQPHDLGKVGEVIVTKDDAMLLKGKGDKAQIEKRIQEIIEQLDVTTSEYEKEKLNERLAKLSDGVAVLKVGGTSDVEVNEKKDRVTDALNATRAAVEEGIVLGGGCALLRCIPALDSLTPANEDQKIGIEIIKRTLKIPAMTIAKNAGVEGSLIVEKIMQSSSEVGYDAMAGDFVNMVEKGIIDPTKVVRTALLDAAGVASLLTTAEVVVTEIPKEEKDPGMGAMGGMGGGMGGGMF
IDO1: Indoleamine 2,3-dioxygenase 1 (IDO1, Homo sapiens, UniProt P14902)
Sequence of UniProt P14902 (whole entry, looked up): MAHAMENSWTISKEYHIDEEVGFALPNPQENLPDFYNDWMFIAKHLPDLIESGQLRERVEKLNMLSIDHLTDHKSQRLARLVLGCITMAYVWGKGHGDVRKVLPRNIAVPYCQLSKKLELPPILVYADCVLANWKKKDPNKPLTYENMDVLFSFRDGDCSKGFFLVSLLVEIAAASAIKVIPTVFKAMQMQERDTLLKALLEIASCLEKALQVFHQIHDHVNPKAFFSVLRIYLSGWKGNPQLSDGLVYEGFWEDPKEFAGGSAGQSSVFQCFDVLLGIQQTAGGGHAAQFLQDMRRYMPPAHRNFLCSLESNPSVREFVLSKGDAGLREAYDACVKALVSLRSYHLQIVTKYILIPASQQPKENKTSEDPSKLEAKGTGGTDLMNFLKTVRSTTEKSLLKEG
Sequence of UniProt P28062 (whole entry, looked up): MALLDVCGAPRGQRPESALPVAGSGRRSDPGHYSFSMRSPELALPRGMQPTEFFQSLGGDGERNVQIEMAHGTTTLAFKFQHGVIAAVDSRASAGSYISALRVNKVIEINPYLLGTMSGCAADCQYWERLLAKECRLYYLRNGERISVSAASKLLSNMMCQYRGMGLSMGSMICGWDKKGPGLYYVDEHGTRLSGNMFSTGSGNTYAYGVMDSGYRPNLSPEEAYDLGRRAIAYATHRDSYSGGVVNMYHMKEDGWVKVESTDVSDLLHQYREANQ
Sequence of UniProt P11229 (whole entry, looked up): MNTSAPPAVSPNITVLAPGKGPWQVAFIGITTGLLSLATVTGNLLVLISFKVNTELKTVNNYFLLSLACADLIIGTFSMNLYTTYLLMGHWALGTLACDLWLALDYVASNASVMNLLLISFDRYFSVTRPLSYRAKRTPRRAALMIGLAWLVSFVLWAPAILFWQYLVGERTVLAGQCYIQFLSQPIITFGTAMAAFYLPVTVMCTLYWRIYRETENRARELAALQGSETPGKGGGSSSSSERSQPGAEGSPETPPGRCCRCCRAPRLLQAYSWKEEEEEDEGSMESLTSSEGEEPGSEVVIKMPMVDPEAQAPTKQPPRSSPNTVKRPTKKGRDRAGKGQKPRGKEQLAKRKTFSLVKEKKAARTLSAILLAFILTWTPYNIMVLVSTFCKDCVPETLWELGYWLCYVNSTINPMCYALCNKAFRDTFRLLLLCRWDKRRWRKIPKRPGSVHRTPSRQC

COc1cc2c(c(OC)c1OC)-c1c(cc3c(c1OC)OCO3)CC(C)C(C)C2 (stereo not drawn)  IC50 (CES1; enzyme activity, inhibitor): 2.41 µM
Nc1nonc1-c1nnc2c(n1)-c1ccccc1C2=O  IC50 (SETD7 (Homo sapiens, UniProt Q8WTS6); enzyme activity, inhibitor): > 50 µM
O=C(O)C(=O)N[C@H](Cc1ccc(O)cc1)C(=O)O  IC50 (KDM4E (Homo sapiens, UniProt B2RXH2); enzyme activity, inhibitor): > 1000 µM
O=C(O)Cc1cc2c(cc1C(=O)c1ccccc1Cl)OCO2  IC50 (Gria2/Glutamate receptor 3; ion current, antagonist, patch clamp): 4.47 µM
CCCCCCN(O)C(=O)CCCCC[C@@H]1NC(=O)[C@H]([C@@H](C)CC)NC(=O)[C@H](Cc2ccccc2C(F)(F)F)NC(=O)CCSCc2cccc(n2)CSCCCNC1=O  IC50 (HDAC7; enzyme activity, inhibitor, fluorogenic): > 30 µM
COc1ccc(Nc2cc(NC3CC3)n3ncc(C#N)c3n2)cc1  IC50 (CSNK2A1 (Homo sapiens, UniProt P68400); target engagement in cells, BRET): 2.2 µM
C#CCCn1nc(C)c2c(Cl)c(C(=O)NCC3CC(Br)=NO3)cnc21 (stereo not drawn)  IC50 (60 kDa heat shock protein, mitochondrial with HSP10; HSP60/10-mediated MDH refolding; 30 min, preincubation before ATP, added: denatured malate dehydrogenase): 28 µM
CCCC1CCCc2c1[nH]c(=O)c(C#N)c2-c1ccc(C)cc1 (stereo not drawn)  IC50 (PDE9A (Homo sapiens, UniProt O76083); enzyme activity, inhibitor, radiometric): 0.0093 µM
CNC(=O)c1ccc(-c2cc(Cl)cc(Cl)c2Cl)c(N)n1  IC50 (SCN10A (Homo sapiens, UniProt Q9Y5Y9, G1406S); ion current, inhibitor, patch clamp): 27.7 µM
COc1cc(CCC(=O)c2ccc(O)c(O)c2)ccc1O  IC50 (mushroom tyrosinase; enzyme activity, inhibitor; 10 min, added: L-tyrosine): 29 µg/mL
NC(=O)c1ccc(C(=O)NOCc2ccc(Sc3cccc(Cl)c3)c(C(F)(F)F)c2)cc1  IC50 (Cytochrome P450 2A6 (CYP2A6, Homo sapiens, UniProt P11509); enzyme activity, inhibitor; pooled human liver microsomes): > 30 µM
Cc1nn(-c2cccc(N)c2)c(=O)c2cnc(Nc3ccc(N4CCNCC4)cc3)nc12  IC50 (BRAF (Homo sapiens, UniProt P15056, V600E); enzyme activity, inhibitor): 1.32 µM
O=C(Nc1ccc(OC(F)(F)F)cc1)N1CCC(Cc2cccc(Oc3ccc(C(F)(F)F)cn3)c2)CC1  IC50 (CES1; enzyme activity, inhibitor): > 10 µM
CC(C)(C)NC(=O)CC(NC(=O)CCc1ccccc1)C(=O)NCCNC(=O)c1cccc(-c2ccccc2)c1 (stereo not drawn)  IC50 (Proteasome component C5/PSMB8 (Homo sapiens, UniProt P20618+P28062); enzyme activity, inhibitor; immunoproteasome β5i): 0.058 µM
Cn1c(=O)c(C(N)=O)c(N2CCC(Oc3ccc(OC(F)(F)F)cc3)CC2)c2ccccc21  IC50 (DGKZ (Homo sapiens, UniProt Q13574); lipid kinase activity, inhibitor, ADP-Glo): > 10000 µM
COc1ccc(CNC(=O)c2cnc3c(c(C)nn3C)c2Cl)cc1  IC50 (60 kDa heat shock protein, mitochondrial with HSP10; ATPase activity; 30 min, added: HSP10): > 250 µM
Cc1ccc(-c2nn(-c3ccc(S(C)(=O)=O)cc3)cc2/C=N/N=C2/NC(=O)CS2)cc1  IC50 (EGFR (Homo sapiens, UniProt P00533, L858R); enzyme activity, inhibitor): 0.092 µM
COC(=O)Cc1cc2c(cc1C(=O)c1ccccc1Cl)OCO2  IC50 (Gria2/Glutamate receptor 3; ion current, antagonist, patch clamp): 5.37 µM
COc1ccc2c(=O)oc3c(OC)cc(CC=O)c4c(=O)oc1c2c34  IC50 (TLR2 (Homo sapiens, UniProt O60603); reporter gene, inhibitor, SEAP reporter; HEK-Blue hTLR2; 24 h, added: Pam3CSK4 100 ng/mL): 39.5 ± 2.56 µM
Cc1oc(C)c(-c2ccc(N(CC(C)C)C3CCCCC3)c(NC(=O)Nc3ccc(B4OC(C)(C)C(C)(C)O4)cc3)c2)c1C(=O)O  IC50 (IDO1; enzyme activity, inhibitor, recombinant enzyme, refers to: kynurenine; 20 min, 2% DMSO, added: L-tryptophan): 17 ± 5 µM
COC(=O)Cc1cc2c(cc1C(=O)c1ccccc1I)OCO2  IC50 (Gria2/Glutamate receptor 3; ion current, patch clamp): 6.01 µM
O=C(CCc1ccc(CNC(C(=O)O)C2CCCCC2)cn1)NO (stereo not drawn)  IC50 (HDAC7; enzyme activity, inhibitor): > 10 µM
Cc1oc(C)c(-c2ccc(N(CC(C)C)CC(C)C)c(NC(=O)Nc3ccccc3)c2)c1C(=O)O  IC50 (IDO1; enzyme activity, inhibitor, recombinant enzyme, refers to: kynurenine; 20 min, 2% DMSO, added: L-tryptophan): 30 ± 4 µM
COC(=O)Cc1cc2c(cc1C(=O)c1cccc(I)c1)OCO2  IC50 (Gria2/Glutamate receptor 3; ion current, patch clamp): 5.83 µM
CN1CC[C@@H](COc2cnc(C#N)cc2-c2ccn3nc(NC(=O)C4CC4)cc3c2)C1  IC50 (SIK1 (Homo sapiens, UniProt P57059); ADP-Glo; added: ATP 3 mM): 0.128 µM
O=C(CNc1cccc2c1C(=O)N(C1CCC(=O)NC1=O)C2=O)NCCOCCOCCOCC(=O)N1CCC(CNC(=O)c2cccc(-c3noc(C(F)(F)F)n3)c2)(c2nc(-c3ccccc3)cs2)CC1 (stereo not drawn)  IC50 (HDAC7; enzyme activity, inhibitor): 0.35 µM
CCN(CC)CC(=O)Nc1cccc(-n2cc(-c3ccc4ccc(-c5cn(-c6cccc(NC(=O)CN(CC)CC)c6)nn5)cc4c3)nn2)c1  IC50 (MAPK10 (Homo sapiens, UniProt P53779); enzyme activity, inhibitor): > 10 µM
O=C(CCNC(=O)CNC(=O)CC(c1ccccc1)(c1ccccc1)c1ccccc1)NC[C@@H]1CCCN(Cc2ccc3cc(F)ccc3c2)C1  IC50 (CHRM1 (Homo sapiens, UniProt P11229); ligand displacement, radioligand; cell membranes): 18 µM
COc1cncc(-c2ccc3[nH]c4ncnc(N[C@H]5CC[C@H](N6CCOCC6)CC5)c4c3c2)c1  IC50 (PIM1 (Homo sapiens, UniProt P11309); enzyme activity, inhibitor, radiometric): 0.008 µM
O=C1Nc2c(Br)cccc2/C1=C1/Nc2ccccc2C1=NO  IC50 (PI4KB (Homo sapiens, UniProt Q9UBF8)): > 9.1 µM
Nc1ncc(-c2cc(-c3cnn(CC(F)(F)F)c3)ncc2F)nc1C(=O)NC1CNCC(F)C1 (stereo not drawn)  IC50 (ROS1 (Homo sapiens, UniProt P08922); enzyme activity, inhibitor, radiometric): 0.209 µM
O=C(CCc1ccccc1)N1C(=O)C2(NC(c3ccc(F)cc3)C3(C(=O)Nc4ccccc43)N2Cc2ccc(F)cc2)c2ccccc21 (stereo not drawn)  IC50 (PIK3CA (Homo sapiens, UniProt P42336); enzyme activity, inhibitor, ADP detection): 0.199 µM
O=C(Cc1ccc(OCc2ccccc2)cc1)NC1(C(=O)O)CCN(C(=O)c2ccc(-c3cccc(Cl)c3)cc2)CC1  IC50 (P2Y purinoceptor 12 (P2RY12, Homo sapiens, UniProt Q9H244); antagonist, GloSensor cAMP): > 10 µM

A few entries again:
O=C(Nc1ccc(OC(F)(F)F)cc1)N1CCC(Cc2cccc(Oc3ccc(C(F)(F)F)cn3)c2)CC1  IC50 (CES1; enzyme activity, inhibitor): > 10 µM
CC(C)(C)NC(=O)CC(NC(=O)CCc1ccccc1)C(=O)NCCNC(=O)c1cccc(-c2ccccc2)c1 (stereo not drawn)  IC50 (Proteasome component C5/PSMB8 (Homo sapiens, UniProt P20618+P28062); enzyme activity, inhibitor; immunoproteasome β5i): 0.058 µM
Cn1c(=O)c(C(N)=O)c(N2CCC(Oc3ccc(OC(F)(F)F)cc3)CC2)c2ccccc21  IC50 (DGKZ (Homo sapiens, UniProt Q13574); lipid kinase activity, inhibitor, ADP-Glo): > 10000 µM
